# Published values gathered from unrelated publications.
# Numbers after ± are the reported error.
Structure (SMILES),test,test system,setting,how to read,measurement,result
COCCNCC(O)Cn1c2ccc(Cl)cc2c2cc(Cl)ccc21 (stereo not drawn),,0.1 M sodium acetate with 0.01% Triton X-100,pH 5.5,,maximum solubility,100 µM
Cn1c(-c2ccc(C(N)=O)cc2F)nnc1C(C)(C)Oc1c(F)cc(Cl)cc1F,,"young non-Japanese adults, plasma","oral, 50 mg single dose, day 1, high-dose multiple-dose study",,half-life median,11.7 h
CC(=O)Nc1ccc(O)cc1,,"healthy volunteers, both sexes, plasma","oral, dose not given, day 2, together with: favipiravir, acute",,AUC(0-12 h),36500 ng·h/mL
CC1(C)C=Cc2c(ccc3c2OC[C@@H](c2ccc(O)cc2O)C3)O1,"glucuronidation, item: M2 formation","Sprague-Dawley rat, male, rat intestinal microsomes",pH 7.4,,intrinsic clearance,5000 µL/min/mg
O=C1CCc2ncccc2C(=O)Nc2ccccc21,nephelometry,aqueous buffer,"30 min, pH 6.5",,kinetic solubility,> 100 µg/mL
Cc1nc(-c2ccc(OCC(C)C)c(C#N)c2)sc1C(=O)O,,"adults with gout, plasma","oral, 80 mg, together with: verinurad 5 mg",,AUC(0-24),5190 ng·h/mL
CS(=O)(=O)Nc1ccc(C(=O)O[C@@H](Cc2c(Cl)c[n+]([O-])cc2Cl)c2ccc(OC(F)F)c(OCC3CC3)c2)cc1OCC1CC1,,"human, plasma","inhaled, 400 µg single dose, single-dose dry powder inhaler",,tmax,2 h
C=CC(=O)Nc1cc(Nc2nccc(-c3cn(C)c4ccccc34)n2)c(OC)cc1N(C)CCN(C)C,,"Sprague-Dawley rat, male, plasma","oral, 10 mg/kg, together with: avitinib 30 mg/kg daily for 7 days",,MRT(0-t),11.2 ± 0.93 h
CNC[C@H](O)[C@@H](O)[C@H](O)[C@H](O)CO.CNC[C@H](O)[C@@H](O)[C@H](O)[C@H](O)CO.O=C([O-])CN(CCN(CC(=O)[O-])CC(=O)O)CCN(CC(=O)[O-])CC(=O)O.[Gd+3],MRI at 9.4 T,saline,"37 °C, per Gd",,T1 relaxivity r1,4 ± 0.1 mM⁻¹ s⁻¹
N=C(N)NC(=O)c1cnn(-c2cccc3ncccc23)c1C1CC1,,"guinea pig Hartley male, hepatic S9","1 µM, pH 7.4, together with: hydralazine 50 µM, without NADPH",,CLint,12.9 ± 2.54 mL/min/kg
COc1cc(Nc2ncc3c(n2)-c2ccc(Cl)cc2C(c2c(F)cccc2OC)=NC3)ccc1C(=O)O,,"children, UGT1A1 intermediate or poor metabolizers, grade ≥2 toxicity, plasma","oral, 80 mg/m2, day 4",,trough concentration,1870 ± 820 nM
N[C@]1(C(=O)O)[C@H]2[C@@H](C[C@@H]1F)[C@@H]2C(=O)O,,"healthy subjects, both sexes, plasma","oral, 10 mg TS-134 single dose, fed, mean",,AUC(0-24 h),382 ng·h/mL
COc1cccc2c1C(=O)c1c(O)c3c(c(O)c1C2=O)C[C@@](O)(C(=O)CO)C[C@@H]3O[C@H]1C[C@H](N)[C@H](O)[C@H](C)O1,,"mouse, E0771 tumour-bearing, heart","intravenous, 92 µmol/kg",,AUC,1930 µM·h
CCCOc1ccc([C@H]2CNC(=O)N2c2ccc3[nH]cnc3c2)cc1,,"human, plasma","oral, 50 mg, single dose, fasted",,AUC(0-t),348 ng·h/mL
CCCC[C@@H]1NC(=O)[C@@H](NC(=O)[C@H](CCC(=O)O)NC(=O)CNC(=O)CN2CCN(CC(=O)O)CCN(CC(=O)O)CCN(CC(=O)O)CC2)CCCCNC(=O)C[C@@H](C(N)=O)NC(=O)[C@H](C(C)C)NC(=O)[C@@H]2CCCN2C(=O)[C@H](CCCNC(=N)N)NC(=O)CNC(=O)[C@H](Cc2c[nH]c3ccccc23)NC(=O)[C@H](CCCNC(=N)N)NC(=O)[C@@H](Cc2ccccc2)NC(=O)[C@H](Cc2c[nH]cn2)NC(=O)[C@H](CCC(=O)O)NC1=O [indium-111 labelled],,"C57 mice, B16/F10 lung metastatic melanoma, stomach","intravenous, 0.037 MBq, 4 h",,tissue uptake,0.05 ± 0.04 %ID/g
COc1cnc(NS(=O)(=O)c2ccc(N)cc2)nc1,,PBS,"2 h, pH 7.4, 25 °C",,kinetic solubility,361 µM
CN[C@@H]1[C@H](O)[C@H](NC)[C@H]2O[C@]3(O)[C@H](O[C@@H]2[C@H]1O)O[C@H](C)C[C@H]3NC(=O)Cc1cc(Cl)c(F)cn1,glutathione conjugation,human liver S9,"100 µM, 2 h, pH 7.4, together with: glutathione 0.2 mM",,parent remaining,98.6%
CCN1C(=O)CNc2ncc(-c3ccc(-c4nc[nH]n4)nc3C)nc21,,"human, plasma","oral, 15 mg twice daily, first dose",,AUC(0-12h),680 ng·h/mL
Cc1cc(-c2cc(OC(=O)c3ccccc3)ccc2Cl)cc2nnc(Nc3ccc(OCCN4CCCC4)cc3)nc12,,"Long Evans rat, sclera/choroid","topical, 1%",,AUC(0-24 h),13.1 µM·h
O=S(=O)(c1cc(F)c(O)c2ncccc12)C1CCCC1,,"rat Sprague-Dawley male, plasma","oral, 10 mg/kg, 4 h",,free concentration,19 nM
C/C=C/C=C/C=C\CC/C=C/C(=O)NCC(C)(C)O,,"human ileostomy patients, ileal effluent","oral, 5 g TU-100, 4 h, no β-glucuronidase treatment",,"amount recovered, maximum",10700 ng
O=C(O)C(c1cc(F)ccc1O)N1Cc2ccccc2C1=O (stereo not drawn),,mouse plasma,"1500 ng/mL, time not given, -30 °C, 3 freeze-thaw cycles, high QC",,recovery,99.9 ± 1.5%
CO[C@H]1C[C@@H]2CC[C@@H](C)[C@@](O)(O2)C(=O)C(=O)N2CCCC[C@H]2C(=O)O[C@H]([C@H](C)C[C@@H]2CC[C@@H](O)[C@H](OC)C2)CC(=O)[C@H](C)/C=C(\C)[C@@H](O)[C@@H](OC)C(=O)[C@H](C)C[C@H](C)/C=C/C=C/C=C/1C,,"human, whole blood","nasogastric tube, 5 mg/day",,trough blood concentration,< 4 ng/mL
CN(C)CCCC1(c2ccc(F)cc2)OCc2cc(C#N)ccc21 (racemic),,"CD-1 mouse, pregnant E14 and E18, fetal and maternal serum","intraperitoneal, 20 mg/kg maternal",,time fetal exceeds maternal,2 h
Cc1cc(Nc2cc3ncccc3c(N[C@@H]3C[C@H]4CC[C@@H](C3)N4CCC#N)n2)n[nH]1,,Crl:CD Sprague Dawley rats,up to 1000 mg/kg/day,,fertility parameters,no effect
O=C(O)[C@H](c1ccccc1Cl)N1CCc2sccc2C1,HPLC-MS/MS,feline EDTA plasma,"72 h, -80 °C, storage stability",,deviation from nominal,-1%
CC(C)[C@H](N)C(=O)NCCCS(=O)(=O)O,,"human, plasma","oral, 340 mg capsule, day 14, fed, multiple dosing",,AUC(0-12),13800 ± 2220 ng·h/mL
Cc1c(C(=O)NN2CCCCC2)nc(-c2ccc(Cl)cc2Cl)n1-c1ccc(OS(=O)(=O)CCC(F)(F)F)cc1,LC-MS/MS,cynomolgus monkey 2,"intravenous infusion, 1.0 mg/kg, 90 min, total, PET mid-point",,plasma concentration,154 nM
CC[C@H](C)[C@H](NC(=O)[C@H](Cc1ccccc1)NC(=O)[C@H](CC(=O)O)NC(=O)[C@H](CCCNC(=N)N)NC(=O)[C@H](C)NC(=O)[C@H](C)NC(=O)[C@H](CC(C)C)NC(=O)[C@H](CC(N)=O)NC(=O)[C@H](CC(=O)O)NC(=O)[C@H](CC(C)C)NC(=O)[C@@H](NC(=O)[C@@H](NC(=O)[C@H](CC(N)=O)NC(=O)[C@H](CCSC)NC(=O)[C@H](CCC(=O)O)NC(=O)[C@H](CC(=O)O)NC(=O)[C@H](CO)NC(=O)[C@H](Cc1ccccc1)NC(=O)[C@H](CO)NC(=O)CNC(=O)[C@H](CC(=O)O)NC(=O)CNC(=O)[C@@H](N)Cc1c[nH]cn1)[C@@H](C)O)[C@@H](C)CC)C(=O)N[C@@H](CC(N)=O)C(=O)N[C@@H](Cc1c[nH]c2ccccc12)C(=O)N[C@@H](CC(C)C)C(=O)N[C@H](C(=O)N[C@@H](CCC(N)=O)C(=O)N[C@H](C(=O)N[C@@H](CCCCN)C(=O)N[C@H](C(=O)N[C@H](C(=O)N[C@@H](CC(=O)O)C(=O)O)[C@@H](C)O)[C@@H](C)CC)[C@@H](C)O)[C@@H](C)CC,,"Japanese patients, mild renal impairment","subcutaneous, 0.05 mg/kg",relative to: normal renal function,V/F difference,≤ 10%
CC1=C2C[C@H]3[C@@H](CC[C@@H]4C[C@H](NS(C)(=O)=O)CC[C@@]43C)[C@@H]2CC[C@@]2(C1)O[C@@H]1C[C@H](C)CN[C@H]1[C@H]2C,,"patients, plasma","oral, 160 mg daily, day 22, cycle 1",,AUC(0-24),8300 ng·h/mL
CCCC[C@H](NC(C)=O)C(=O)N[C@H]1CCC(=O)NC[C@@H](C(=O)N[C@@H](Cc2c[nH]c3ccccc23)C(N)=O)NC(=O)[C@H](CCCNC(=N)N)NC(=O)[C@@H](Cc2ccccc2)NC(=O)[C@H](Cc2c[nH]cn2)NC1=O,,"male Sprague-Dawley rat, plasma","subcutaneous, 5 mg/kg, multiple doses, once daily",,Vd/F,12.3 L/kg
CCN1CCN(Cc2ccc(Nc3ncc(F)c(-c4cc(F)c5nc(C)n(C(C)C)c5c4)n3)nc2)CC1,population PK model,"patients, plasma","oral, 150 mg single dose",,hepatic clearance,23 L/h
CCOc1ccc(Cc2cc([C@@H]3S[C@H](CO)[C@@H](O)[C@H](O)[C@H]3O)c(OC)cc2C)cc1,,"human, plasma","oral, 10 mg/day, day 1, multiple dose before breakfast",,elimination rate constant,2.12e-05 ± 1.88e-06 s⁻¹
C/C=C/C[C@@H](C)C(=O)[C@H]1C(=O)N[C@@H](C(C)C)C(=O)N(C)CC(=O)N(C)[C@@H](CC(C)C)C(=O)N[C@@H](C(C)C)C(=O)N(C)[C@@H](CC(C)C)C(=O)N[C@@H](C)C(=O)N[C@H](C)C(=O)N(C)[C@@H](CC(C)C)C(=O)N(C)[C@@H](CC(C)C)C(=O)N(C)[C@@H](C(C)C)C(=O)N1C,,"pediatric patients, blood","intravenous infusion, dose not given, 85 h, median",,blood concentration,2590 ng/mL
Cn1cc(-c2cc(N3CCCCS3(=O)=O)ccc2Oc2ccc(F)cc2F)c2c(F)c[nH]c2c1=O,,"Sprague-Dawley rat, plasma","oral vs intravenous, 3 mg/kg oral, 1 mg/kg i.v.",,oral bioavailability,22%
[2H]C([2H])([2H])Oc1cc2c(cc1OC([2H])([2H])[2H])C1CC(=O)C(CC(C)C)CN1CC2 (stereo not drawn),item: deuterated total (α+β)-HTBZ,"healthy human volunteers, plasma","oral, 24 mg single dose, standard meal",,dose-normalized Cmax,2.5 ng/mL

# For quick reference, copied from above:
Structure (SMILES),test,test system,setting,how to read,measurement,result
CN(C)CCCC1(c2ccc(F)cc2)OCc2cc(C#N)ccc21 (racemic),,"CD-1 mouse, pregnant E14 and E18, fetal and maternal serum","intraperitoneal, 20 mg/kg maternal",,time fetal exceeds maternal,2 h
Cc1cc(Nc2cc3ncccc3c(N[C@@H]3C[C@H]4CC[C@@H](C3)N4CCC#N)n2)n[nH]1,,Crl:CD Sprague Dawley rats,up to 1000 mg/kg/day,,fertility parameters,no effect
O=C(O)[C@H](c1ccccc1Cl)N1CCc2sccc2C1,HPLC-MS/MS,feline EDTA plasma,"72 h, -80 °C, storage stability",,deviation from nominal,-1%
CC(C)[C@H](N)C(=O)NCCCS(=O)(=O)O,,"human, plasma","oral, 340 mg capsule, day 14, fed, multiple dosing",,AUC(0-12),13800 ± 2220 ng·h/mL
Cc1c(C(=O)NN2CCCCC2)nc(-c2ccc(Cl)cc2Cl)n1-c1ccc(OS(=O)(=O)CCC(F)(F)F)cc1,LC-MS/MS,cynomolgus monkey 2,"intravenous infusion, 1.0 mg/kg, 90 min, total, PET mid-point",,plasma concentration,154 nM
CC[C@H](C)[C@H](NC(=O)[C@H](Cc1ccccc1)NC(=O)[C@H](CC(=O)O)NC(=O)[C@H](CCCNC(=N)N)NC(=O)[C@H](C)NC(=O)[C@H](C)NC(=O)[C@H](CC(C)C)NC(=O)[C@H](CC(N)=O)NC(=O)[C@H](CC(=O)O)NC(=O)[C@H](CC(C)C)NC(=O)[C@@H](NC(=O)[C@@H](NC(=O)[C@H](CC(N)=O)NC(=O)[C@H](CCSC)NC(=O)[C@H](CCC(=O)O)NC(=O)[C@H](CC(=O)O)NC(=O)[C@H](CO)NC(=O)[C@H](Cc1ccccc1)NC(=O)[C@H](CO)NC(=O)CNC(=O)[C@H](CC(=O)O)NC(=O)CNC(=O)[C@@H](N)Cc1c[nH]cn1)[C@@H](C)O)[C@@H](C)CC)C(=O)N[C@@H](CC(N)=O)C(=O)N[C@@H](Cc1c[nH]c2ccccc12)C(=O)N[C@@H](CC(C)C)C(=O)N[C@H](C(=O)N[C@@H](CCC(N)=O)C(=O)N[C@H](C(=O)N[C@@H](CCCCN)C(=O)N[C@H](C(=O)N[C@H](C(=O)N[C@@H](CC(=O)O)C(=O)O)[C@@H](C)O)[C@@H](C)CC)[C@@H](C)O)[C@@H](C)CC,,"Japanese patients, mild renal impairment","subcutaneous, 0.05 mg/kg",relative to: normal renal function,V/F difference,≤ 10%
